Results from different studies.
Compare with care: the assays were run in different laboratories. Numbers after ± are the reported error. Values after ≈ are worked out from the molar mass of the structure shown.

| SMILES | organism | test | system | conditions | how to read | quantity | value |
| --- | --- | --- | --- | --- | --- | --- | --- |
| O=C(CCN(CCC(=O)N[C@@H](Cc1c[nH]c2ccccc12)C(=O)O)C(=O)CCN(CCC(=O)N(CCC(=O)N[C@@H](Cc1c[nH]c2ccccc12)C(=O)O)CCC(=O)N[C@@H](Cc1c[nH]c2ccccc12)C(=O)O)C(=O)CCOCC(COCCC(=O)N(CCC(=O)N(CCC(=O)N[C@@H](Cc1c[nH]c2ccccc12)C(=O)O)CCC(=O)N[C@@H](Cc1c[nH]c2ccccc12)C(=O)O)CCC(=O)N(CCC(=O)N[C@@H](Cc1c[nH]c2ccccc12)C(=O)O)CCC(=O)N[C@@H](Cc1c[nH]c2ccccc12)C(=O)O)(COCCC(=O)N(CCC(=O)N(CCC(=O)N[C@@H](Cc1c[nH]c2ccccc12)C(=O)O)CCC(=O)N[C@@H](Cc1c[nH]c2ccccc12)C(=O)O)CCC(=O)N(CCC(=O)N[C@@H](Cc1c[nH]c2ccccc12)C(=O)O)CCC(=O)N[C@@H](Cc1c[nH]c2ccccc12)C(=O)O)COCCC(=O)N(CCC(=O)N(CCC(=O)N[C@@H](Cc1c[nH]c2ccccc12)C(=O)O)CCC(=O)N[C@@H](Cc1c[nH]c2ccccc12)C(=O)O)CCC(=O)N(CCC(=O)N[C@@H](Cc1c[nH]c2ccccc12)C(=O)O)CCC(=O)N[C@@H](Cc1c[nH]c2ccccc12)C(=O)O)N[C@@H](Cc1c[nH]c2ccccc12)C(=O)O | Enterovirus A71 | viral replication | RD, B2 clinical isolate |  |  | EC50 | 1.7 ± 0.2 nM |
| O=S(=O)(O)c1ccc2c(c1)Cc1cc(S(=O)(=O)O)ccc1-2 | Escherichia coli | bacterial growth, broth microdilution | expressing OXA-48 | 64 µg/mL, with: ampicillin | MIC of ampicillin | MIC of ampicillin | 128 µg/mL |
| NC[C@@H](NC[C@@H]1CCCN1C[C@@H](CO)NC[C@@H](NCCC12CC3CC(CC(C3)C1)C2)c1ccccc1)c1ccccc1 | Acinetobacter baumannii | bacterial growth |  | 16 µM, fold shift of IC90, with: amikacin |  | potentiation of amikacin | 8.7 fold |
| O=S(=O)(O)c1ccc2cc(S(=O)(=O)O)ccc2c1 | Escherichia coli | bacterial growth, inhibitor, broth microdilution | expressing OXA-48 | 256 µg/mL, with: ampicillin | baseline: ampicillin alone | MIC fold reduction | 16 fold |
| O=C(NC1CCN(c2ncnc3[nH]cnc23)CC1)c1cccc(NS(=O)(=O)c2ccc(Cl)cc2)c1 | HCoV-OC43 | viral infection |  | concentration not given |  | inhibition | 19.9% |
| CC(C)=C1CC[C@]23CO[C@H](C2)[C@@](O)(C(=O)O)CC[C@@H]13 | Arabidopsis thaliana |  | Col-0, seedlings | 50 µg/mL, with: BCAA |  | root length | 0.842 cm |
| O=S(=O)(O)c1ccc(-c2ccc(S(=O)(=O)O)cc2)cc1 | Escherichia coli | bacterial growth, broth microdilution | expressing OXA-48 | 64 µg/mL, with: ampicillin | MIC of ampicillin | MIC of ampicillin | 128 µg/mL |
| O=c1c2ccc(Oc3ccc(OC(F)(F)F)cc3)cc2[nH]c2cc(F)cc(Cl)c12 | Toxoplasma gondii | parasite growth | RH cytochrome b T222P |  |  | EC50 | 0.704 nM |
| CCc1nc(N)nc(N)c1C#C[C@H](C)c1cc(OC)cc(-c2ccncc2)c1 | Staphylococcus aureus | broth microdilution | ATCC 43300 MRSA | 18 h, 37 °C |  | MIC | 0.312 µg/mL (≈ 0.837 µM) |
| O=C(O)c1ccc(-c2cccc(C(=O)O)c2)cc1 | Escherichia coli | bacterial growth, broth microdilution | expressing OXA-48 | 4 µg/mL, with: ampicillin | MIC of ampicillin | MIC of ampicillin | 512 µg/mL |
| NC[C@@H](NC[C@@H]1CCCN1C[C@@H](CO)NC[C@@H](NCCC1CC2CCC1C2)c1ccccc1)c1ccccc1 (some centres unmarked) | Acinetobacter baumannii | bacterial growth |  | 8 µM, fold shift of IC90, with: amikacin |  | potentiation of amikacin | 1 fold |
| Cc1ccccc1S(=O)(=O)Nc1cccc(C(=O)NC2CCN(c3ncnc4[nH]cnc34)CC2)c1 | HCoV-OC43 | viral infection |  | concentration not given |  | inhibition | 62.4% |
| Nc1cc(S(=O)(=O)O)cc2cc(S(=O)(=O)O)cc(O)c12 | Escherichia coli | bacterial growth, broth microdilution | expressing OXA-48 | 256 µg/mL, with: ampicillin | MIC of ampicillin | MIC of ampicillin | 128 µg/mL |
| NC[C@@H](NC[C@@H]1CCCN1C[C@@H](CO)NC[C@@H](NCCc1ccc(-c2ccccc2)cc1)c1ccccc1)c1ccccc1 | Escherichia coli | bacterial growth |  | 8 µM, fold shift of IC50, with: amikacin |  | potentiation of amikacin | 1 fold |
| COc1cc(-c2cc(C)cc(C)c2)cc(C(C)C#Cc2c(C)nc(N)nc2N)c1 (racemic) | Candida glabrata | Alamar Blue |  |  |  | MIC | 3 µg/mL (≈ 7.76 µM) |
| NC[C@@H](NC[C@@H]1CCCN1C[C@@H](CO)NC[C@@H](NCCc1ccc(Cl)c(Cl)c1)c1ccccc1)c1ccccc1 | Klebsiella pneumoniae | bacterial growth |  | 8 µM, fold shift of IC50, with: amikacin |  | potentiation of amikacin | 0.8 fold |
| C[C@H](CS)C(=O)N[C@H](Cc1c[nH]c2ccccc12)C(=O)O | Escherichia coli |  | IMP-1 producing | 50 µM, with: meropenem |  | MIC of meropenem | 0.5 µg/mL |
| CC(C)(C)c1ccc(C(=O)Nc2cc(Cl)c(F)cc2C(=O)O)cc1 | Trypanosoma brucei |  | bloodstream form, 90-13 | 10 µM |  | growth inhibition | 32 ± 11% |
| CC(CCN[C@H](CN[C@H](CO)CN1CCC[C@H]1CN[C@H](CN)c1ccccc1)c1ccccc1)c1ccccc1 (some centres unmarked) | Klebsiella pneumoniae | bacterial growth |  | 16 µM, fold shift of IC90, with: amikacin |  | potentiation of amikacin | 1.3 fold |
| N#Cc1cc(S(=O)(=O)Nc2cccc(C(=O)NC3CCN(c4ncnc5[nH]cnc45)CC3)c2)ccc1F | HCoV-OC43 | viral infection |  | concentration not given |  | inhibition | 45.4% |

A few entries again:
| SMILES | organism | test | system | conditions | how to read | quantity | value |
| --- | --- | --- | --- | --- | --- | --- | --- |
| Nc1cc(S(=O)(=O)O)cc2cc(S(=O)(=O)O)cc(O)c12 | Escherichia coli | bacterial growth, broth microdilution | expressing OXA-48 | 256 µg/mL, with: ampicillin | MIC of ampicillin | MIC of ampicillin | 128 µg/mL |
